Results gathered from unrelated publications.
Lines come from different studies, so protocols differ. Numbers after ± are the reported error.
PPO3: PPO3 (Agaricus bisporus, UniProt C7FF04)
Sequence of UniProt C7FF04 (whole entry, looked up): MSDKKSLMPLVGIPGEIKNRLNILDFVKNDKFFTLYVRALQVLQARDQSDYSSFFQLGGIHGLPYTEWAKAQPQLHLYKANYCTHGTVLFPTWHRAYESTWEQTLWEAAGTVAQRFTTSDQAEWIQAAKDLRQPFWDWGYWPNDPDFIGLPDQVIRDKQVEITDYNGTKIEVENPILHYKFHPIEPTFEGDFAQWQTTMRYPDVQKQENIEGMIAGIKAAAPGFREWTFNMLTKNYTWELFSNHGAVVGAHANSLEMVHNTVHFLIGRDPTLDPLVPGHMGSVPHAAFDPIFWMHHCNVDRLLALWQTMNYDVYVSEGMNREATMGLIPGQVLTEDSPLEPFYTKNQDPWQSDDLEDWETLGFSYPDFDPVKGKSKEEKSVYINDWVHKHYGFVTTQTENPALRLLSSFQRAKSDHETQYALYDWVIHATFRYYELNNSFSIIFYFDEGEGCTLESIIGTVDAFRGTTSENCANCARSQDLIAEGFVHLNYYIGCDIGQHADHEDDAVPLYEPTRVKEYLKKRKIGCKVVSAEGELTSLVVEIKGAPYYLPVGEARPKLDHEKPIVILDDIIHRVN
IDO1: Indoleamine 2,3-dioxygenase 1 (IDO1, Homo sapiens, UniProt P14902)
Sequence of UniProt P14902 (whole entry, looked up): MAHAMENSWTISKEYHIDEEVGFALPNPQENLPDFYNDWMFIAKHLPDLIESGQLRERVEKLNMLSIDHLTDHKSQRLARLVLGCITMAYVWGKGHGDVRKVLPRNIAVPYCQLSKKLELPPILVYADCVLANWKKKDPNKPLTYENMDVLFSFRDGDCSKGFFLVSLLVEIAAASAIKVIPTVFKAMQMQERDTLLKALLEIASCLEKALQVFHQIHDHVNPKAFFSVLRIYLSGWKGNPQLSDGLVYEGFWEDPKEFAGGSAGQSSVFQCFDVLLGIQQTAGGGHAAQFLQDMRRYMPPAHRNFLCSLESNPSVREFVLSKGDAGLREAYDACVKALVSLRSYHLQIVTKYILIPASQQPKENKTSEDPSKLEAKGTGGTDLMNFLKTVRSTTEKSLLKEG
TRPV1: Transient receptor potential cation channel subfamily V member 1 (TRPV1, Homo sapiens, UniProt Q8NER1)
Sequence of UniProt Q8NER1 (whole entry, looked up): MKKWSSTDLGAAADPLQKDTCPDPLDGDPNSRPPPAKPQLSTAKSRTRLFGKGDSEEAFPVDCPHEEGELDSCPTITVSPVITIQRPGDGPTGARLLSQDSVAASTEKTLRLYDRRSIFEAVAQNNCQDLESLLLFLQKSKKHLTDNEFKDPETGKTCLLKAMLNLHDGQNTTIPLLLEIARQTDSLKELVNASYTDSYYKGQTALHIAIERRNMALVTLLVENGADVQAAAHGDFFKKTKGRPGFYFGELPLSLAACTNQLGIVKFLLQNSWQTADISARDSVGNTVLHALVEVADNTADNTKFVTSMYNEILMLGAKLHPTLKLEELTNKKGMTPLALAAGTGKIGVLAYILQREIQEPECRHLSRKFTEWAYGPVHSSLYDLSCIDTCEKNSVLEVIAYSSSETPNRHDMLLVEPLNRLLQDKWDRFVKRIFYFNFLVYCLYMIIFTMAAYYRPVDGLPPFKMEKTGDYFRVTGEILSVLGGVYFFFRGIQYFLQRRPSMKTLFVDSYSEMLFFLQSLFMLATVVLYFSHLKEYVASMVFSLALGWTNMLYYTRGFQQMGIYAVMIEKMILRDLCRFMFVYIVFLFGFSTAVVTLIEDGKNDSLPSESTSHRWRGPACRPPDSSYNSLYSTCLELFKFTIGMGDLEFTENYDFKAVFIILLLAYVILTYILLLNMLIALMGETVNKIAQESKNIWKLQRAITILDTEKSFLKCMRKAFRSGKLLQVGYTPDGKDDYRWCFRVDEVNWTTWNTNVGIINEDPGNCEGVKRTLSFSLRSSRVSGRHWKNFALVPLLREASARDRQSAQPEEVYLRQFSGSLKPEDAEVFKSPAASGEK
AKR1C1: Aldo-keto reductase family 1 member C1 (AKR1C1, Homo sapiens, UniProt Q04828)
Sequence of UniProt Q04828 (whole entry, looked up): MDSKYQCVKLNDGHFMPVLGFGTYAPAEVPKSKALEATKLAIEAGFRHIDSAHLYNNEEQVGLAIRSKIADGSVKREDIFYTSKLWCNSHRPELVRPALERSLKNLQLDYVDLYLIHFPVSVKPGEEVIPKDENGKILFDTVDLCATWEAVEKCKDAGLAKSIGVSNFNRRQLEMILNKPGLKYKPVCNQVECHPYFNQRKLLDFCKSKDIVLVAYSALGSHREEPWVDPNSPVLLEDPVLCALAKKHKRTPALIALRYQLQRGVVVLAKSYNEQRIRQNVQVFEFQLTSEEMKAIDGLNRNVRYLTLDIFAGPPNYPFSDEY
SIRT1: NAD-dependent protein deacetylase sirtuin-1 (SIRT1, Homo sapiens, UniProt Q96EB6)
Sequence of UniProt Q96EB6 (whole entry, looked up): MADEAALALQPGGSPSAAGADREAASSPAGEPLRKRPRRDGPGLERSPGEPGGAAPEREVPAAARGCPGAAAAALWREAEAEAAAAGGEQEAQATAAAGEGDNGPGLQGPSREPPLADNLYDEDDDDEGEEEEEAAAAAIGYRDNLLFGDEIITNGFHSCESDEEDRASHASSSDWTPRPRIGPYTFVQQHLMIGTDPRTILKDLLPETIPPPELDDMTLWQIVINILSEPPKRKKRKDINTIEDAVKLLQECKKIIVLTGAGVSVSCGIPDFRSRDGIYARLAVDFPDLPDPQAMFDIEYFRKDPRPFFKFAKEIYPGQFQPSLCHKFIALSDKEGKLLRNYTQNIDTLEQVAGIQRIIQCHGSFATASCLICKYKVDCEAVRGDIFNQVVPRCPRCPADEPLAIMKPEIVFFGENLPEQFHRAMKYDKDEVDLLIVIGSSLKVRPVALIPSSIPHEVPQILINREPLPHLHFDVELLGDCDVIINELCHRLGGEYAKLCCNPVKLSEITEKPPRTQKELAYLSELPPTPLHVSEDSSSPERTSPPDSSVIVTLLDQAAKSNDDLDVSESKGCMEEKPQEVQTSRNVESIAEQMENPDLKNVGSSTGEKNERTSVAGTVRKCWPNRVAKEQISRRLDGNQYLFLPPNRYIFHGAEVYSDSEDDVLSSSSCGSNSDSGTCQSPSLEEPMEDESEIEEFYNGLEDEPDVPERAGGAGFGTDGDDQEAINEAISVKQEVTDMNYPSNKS
Sequence of UniProt Q8WTS6 (whole entry, looked up): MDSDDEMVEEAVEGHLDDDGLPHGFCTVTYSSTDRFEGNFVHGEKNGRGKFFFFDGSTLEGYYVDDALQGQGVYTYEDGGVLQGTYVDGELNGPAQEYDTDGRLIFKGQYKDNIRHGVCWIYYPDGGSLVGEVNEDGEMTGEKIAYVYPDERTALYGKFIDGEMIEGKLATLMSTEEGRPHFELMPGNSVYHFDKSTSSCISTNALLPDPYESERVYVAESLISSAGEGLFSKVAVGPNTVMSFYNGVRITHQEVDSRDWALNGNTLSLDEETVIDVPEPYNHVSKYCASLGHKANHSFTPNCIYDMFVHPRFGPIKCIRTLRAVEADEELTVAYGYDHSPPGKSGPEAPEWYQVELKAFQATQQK
Sequence of UniProt Q969I6 (whole entry, looked up): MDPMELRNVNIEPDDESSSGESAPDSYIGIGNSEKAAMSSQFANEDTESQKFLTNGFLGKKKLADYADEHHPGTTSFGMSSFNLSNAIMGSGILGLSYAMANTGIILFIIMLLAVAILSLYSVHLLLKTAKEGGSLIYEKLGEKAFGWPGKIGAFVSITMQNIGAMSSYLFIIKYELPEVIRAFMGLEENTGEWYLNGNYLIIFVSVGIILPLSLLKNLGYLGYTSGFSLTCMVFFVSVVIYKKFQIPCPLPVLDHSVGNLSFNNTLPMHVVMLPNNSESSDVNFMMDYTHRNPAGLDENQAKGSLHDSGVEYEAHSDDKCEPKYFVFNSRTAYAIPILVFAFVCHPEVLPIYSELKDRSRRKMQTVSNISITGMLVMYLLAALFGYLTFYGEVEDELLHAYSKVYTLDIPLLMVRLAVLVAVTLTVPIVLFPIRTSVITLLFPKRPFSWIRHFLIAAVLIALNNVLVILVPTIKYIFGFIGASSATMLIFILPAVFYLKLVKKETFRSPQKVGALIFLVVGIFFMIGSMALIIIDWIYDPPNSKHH
Sequence of UniProt P23975 (whole entry, looked up): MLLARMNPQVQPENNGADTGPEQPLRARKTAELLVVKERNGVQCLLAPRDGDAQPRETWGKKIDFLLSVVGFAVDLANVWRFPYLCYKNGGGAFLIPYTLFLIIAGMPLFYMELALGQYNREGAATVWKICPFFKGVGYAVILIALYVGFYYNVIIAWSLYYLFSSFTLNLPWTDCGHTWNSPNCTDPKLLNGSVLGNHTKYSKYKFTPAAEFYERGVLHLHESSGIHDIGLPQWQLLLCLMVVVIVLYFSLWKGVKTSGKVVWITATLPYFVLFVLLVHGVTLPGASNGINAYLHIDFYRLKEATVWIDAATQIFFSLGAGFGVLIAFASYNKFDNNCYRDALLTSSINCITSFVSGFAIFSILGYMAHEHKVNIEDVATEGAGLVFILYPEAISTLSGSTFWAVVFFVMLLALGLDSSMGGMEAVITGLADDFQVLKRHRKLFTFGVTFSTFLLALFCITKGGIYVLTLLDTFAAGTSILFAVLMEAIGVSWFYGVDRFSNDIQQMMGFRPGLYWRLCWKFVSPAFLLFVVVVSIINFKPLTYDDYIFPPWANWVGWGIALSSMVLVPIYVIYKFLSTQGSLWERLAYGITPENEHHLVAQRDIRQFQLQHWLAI
Sequence of UniProt Q16222 (whole entry, looked up): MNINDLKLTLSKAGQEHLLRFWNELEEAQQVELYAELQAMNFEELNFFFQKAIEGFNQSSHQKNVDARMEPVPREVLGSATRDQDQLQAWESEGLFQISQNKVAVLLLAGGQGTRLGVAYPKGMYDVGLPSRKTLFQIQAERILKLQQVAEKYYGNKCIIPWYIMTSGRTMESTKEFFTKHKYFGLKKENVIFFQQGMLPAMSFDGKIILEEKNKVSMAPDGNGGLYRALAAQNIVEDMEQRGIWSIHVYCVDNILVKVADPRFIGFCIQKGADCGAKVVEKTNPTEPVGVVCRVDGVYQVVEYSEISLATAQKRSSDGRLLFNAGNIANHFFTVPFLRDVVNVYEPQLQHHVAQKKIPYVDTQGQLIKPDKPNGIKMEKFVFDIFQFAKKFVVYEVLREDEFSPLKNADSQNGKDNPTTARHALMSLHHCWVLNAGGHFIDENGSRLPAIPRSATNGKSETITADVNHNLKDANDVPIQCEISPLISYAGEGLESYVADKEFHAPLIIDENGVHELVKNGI

For `CC1=CC(=O)C(C2CCCCC2)=C/C1=N\OS(=O)(=O)c1ccccc1`, the inhibition was ~50% (PPO3; enzyme activity, inhibitor, absorbance; 20 µM).
`CC(C)(O)Cn1nc(-c2ccccc2)c2c(Cl)c(-c3ccccc3)nnc21` gave an inhibition of 87.1 ± 27.7% (60 kDa heat shock protein, mitochondrial (Homo sapiens, UniProt P10809); chaperone activity; 0.846 µM, together with: citrate synthase aggregation).
With `O=C(O[C@H](CO)C(F)(F)F)N1C[C@@H]2[C@H](C1)[C@H]2c1ccn(-c2ccc(F)nc2)n1` the inhibition was > 50% (SLC6A2 (Homo sapiens, UniProt P23975); 10 µM).
`CCCCOc1ccc(C2CC(c3ccc(C)cc3)=Nc3ccccc3S2)cc1OC` (stereo not shown) gave an inhibition of 63% (PPO3; enzyme activity, inhibitor; 25 µg/mL).
For `COc1ncnc(C2CC2)c1-c1ncc2c(n1)n(Cc1ccc(-c3nc(C(F)(F)F)cn3C)cc1)c(=N)n2CC(F)(F)F`, the inhibition was 89% (ULK3 (Homo sapiens, UniProt Q6PHR2); cell-free assay, competition with immobilised ligand; 10 µM).
`CC(=O)Nc1cc(COc2c(Cl)cc(CC(N)C(=O)O)cc2Cl)c2oc(-c3ccccc3)nc2c1` (stereo not shown): inhibition “no inhibition” (Sodium-coupled neutral amino acid transporter 4 (SLC38A4, Homo sapiens, UniProt Q969I6); L-alanine uptake; Xenopus oocytes; 1 and 10 µM, 30 min, together with: L-[14C]alanine 50 µM).
With `COc1cc(C(=O)NC2CCC(N3CCN(CC4CCC5(CCCC5)C4)CC3)CC2)c(F)cc1Nc1ncc2c(n1)N(C1CCCC1(F)F)CC(F)(F)C(=O)N2C` (stereo not shown) the inhibition was 7.58% (CDK7 (Homo sapiens, UniProt P50613); cell-free assay, TR-FRET; 10 µM).
`O=C1c2c(O)cccc2[C@@H]([C@@H]2O[C@H](CO)[C@@H](O)[C@H](O)[C@H]2O)c2cc(CO)cc(O)c21` gave an inhibition of 66.8 ± 0.82% (IDO1; kynurenine formation; 100 µM).
`NS(=O)(=O)c1ccc(N2N=C(c3ccccc3O)CC2c2ccc(Br)cc2)cc1` (stereo not shown) gave an inhibition of 40% (CA9 (Homo sapiens, UniProt Q16790); enzyme activity, inhibitor; 1 mM).
`Cc1cc2c(NC(=O)N[C@@H]3CC(C)(C)Oc4cc(C(F)(F)F)ccc43)cccc2cn1` has an inhibition of 76.2 ± 6.6% (TRPV1; acid-evoked calcium influx, antagonist; HEK293, human; 11.25 µM, pH 5).
`NCCC(=O)N[C@@H](Cc1c[nH]c2ccc(O)cc12)C(=O)N[C@@H](Cc1ccc(Cl)cc1)C(=O)N[C@@H](Cc1ccncc1)C(N)=O` has an inhibition of ~90% (Ephrin type-A receptor 4, ectodomain (Epha4, Mus musculus, UniProt Q03137); ephrin-A5 binding, antagonist, ELISA; 500 µM, together with: ephrin-A5-AP).
The inhibition of `C[C@]12CC[C@@H]3c4cc(Br)c(O)cc4CC[C@H]3[C@@H]1CCC2=O` is reported as 65% (AKR1C1; enzyme activity, inhibitor, absorbance; 100 µM, pH 9).
For `Cn1nc(-c2ccc(Cl)cc2)c2cc(C(=O)NCCCN3CCCCCC3)sc21`, the inhibition was > 2 fold (RAD51 (Homo sapiens, UniProt Q06609); D-loop formation; 10 x IC50, together with: Ca2+ 1 mM; baseline: DMSO).
For `Cc1ccc(C2=Nc3ccccc3SC(c3ccc([N+](=O)[O-])cc3)C2)cc1` (stereo not shown), the inhibition was 21% (PPO3; enzyme activity, inhibitor; 25 µg/mL).
With `C[C@]12CC[C@@H]3c4cc(Cl)c(O)cc4CC[C@H]3[C@@H]1CCC2=O` the inhibition was 50% (AKR1C1; enzyme activity, inhibitor, absorbance; 10 µM, pH 9).
`O=C(Cn1cc(C2CC(c3ccccc3)=NN2)nn1)Nc1nc(-c2ccccc2)cs1` (stereo not shown) gave an inhibition of 82.3% (MMP9 (Homo sapiens, UniProt P14780); enzyme activity, inhibitor; 0.5 µM).
`CCCC[C@H](NC(C)=O)C(=O)N1CCC[C@H]1C(=O)N[C@@H](CO)C(=O)N[C@@H](CO)C(=O)N[C@@H](C)C(=O)N[C@@H](CO)C(=O)N[C@@H](CCCNC(=N)N)C(=O)N[C@@H](CCC(N)=O)C(=O)N[C@@H](CC(C)C)C(=O)N[C@@H](CC(C)C)C(=O)N[C@@H](CCCNC(=N)N)C(=O)N[C@@H](CCCCN)C(=O)N[C@@H](CCC(N)=O)C(=O)N[C@@]1(C)CCCC=CCCC[C@@](C)(C(N)=O)NC(=O)[C@H]([C@@H](C)CC)NC(=O)[C@H](CCC(=O)O)NC(=O)[C@H](CCCCN)NC1=O`: inhibition “inactive” (UBA1 (Homo sapiens, UniProt P22314); ubiquitin thioester transfer to UBE2D2, inhibitor; concentration not given, staple-scanning screen).
For `COc1ccc2c(c1)CC[C@@H]1[C@@H]2CC[C@]2(C)C(=O)CC[C@@H]12`, the inhibition was 8.2% (AKR1C1; enzyme activity, inhibitor, absorbance; 10 µM, pH 9).
The inhibition of `CC[C@H](C)[C@H](NC(=O)[C@H](CCCNC(=N)N)NC(=O)[C@H](CCCCN)NC(=O)[C@@H]1CCCN1C(=O)[C@@H]1CCCN1CCCN(CC[C@H](N)C(=O)O)C[C@H]1O[C@@H](n2cnc3c(N)ncnc32)[C@H](O)[C@@H]1O)C(=O)N[C@@H](C)C(N)=O` is reported as < 20% (SETD7 (Homo sapiens, UniProt Q8WTS6); enzyme activity, inhibitor; 33 µM).
`CCC1(CC)C[C@@H](NC(=O)Nc2cccc3c(C)nccc23)c2cc(F)ccc2O1` gave an inhibition of 23.7 ± 7.4% (TRPV1; proton-induced activation, inhibitor, FLIPR calcium; HEK293 expressing human TRPV1; up to 11.25 µmol/L, pH 5.0; partial inhibition).
For `COc1ccc2c(c1Br)CC[C@@H]1[C@@H]2CC[C@@]2(C)C(=O)CC[C@@H]12`, the inhibition was 12.5% (AKR1C1; enzyme activity, inhibitor, absorbance; 100 µM, pH 9).
For `Cc1ccc2c(c1Br)C(O)(CC(=O)c1ccc3c(c1)OCO3)C(=O)N2` (stereo not shown), inhibition read “no inhibition” (UAP1 (Homo sapiens, UniProt Q16222); enzyme activity, coupled colorimetric; concentration not given).
`C[C@]12CC[C@@H]3c4ccc(O)cc4CC[C@H]3[C@@H]1CCC2=O` has an inhibition of 10% (AKR1C1; enzyme activity, inhibitor, absorbance; 100 µM, pH 9).
The inhibition of `C/C=C/c1cc(=O)c2c(C)cc(OC)c([C@@H]3O[C@H](CO)[C@@H](O)[C@H](O)[C@H]3OC(=O)/C=C/c3ccc(O)cc3)c2o1` is reported as 22.8 ± 0.48% (IDO1; kynurenine formation; 100 µM).
`C[C@]12CC[C@@H]3c4ccc(O)c(I)c4CC[C@H]3[C@@H]1CCC2=O` gave an inhibition of 10% (AKR1C1; enzyme activity, inhibitor, absorbance; 100 µM, pH 9).
Under inhibition, `CCS(=O)(=O)c1ccccc1C(=O)N1CCN(c2nc3ccc(F)cc3s2)C[C@@H]1C` is recorded as “no effect” (MGLL (Homo sapiens, UniProt Q99685); enzyme activity, inhibitor; concentration not given).
With `O=C(N[C@@H](CC1CCCCC1)C(=O)N[C@@H](C[C@H]1CCNC1=O)C(=O)C(=O)NC1CC1)OCc1cccc(Cl)c1` the inhibition was 0% (Chymotrypsinogen A (Bos taurus, UniProt P00766); enzyme activity, inhibitor; 2.5 µM, inhibitor/enzyme ratio 250).
For `COc1cc2c(cc1Br)[C@H]1CC[C@@]3(C)C(=O)CC[C@H]3[C@@H]1CC2`, the inhibition was 7.1% (AKR1C1; enzyme activity, inhibitor, absorbance; 10 µM, pH 9).
`Cc1cc(C)nc(SCC(=O)Nc2ncc(Cc3cccc4ccccc34)s2)n1` has an inhibition of 37% (SIRT1; enzyme activity, inhibitor; 10 µM).
`C[C@]12CC[C@@H]3c4cc(I)c(O)c(I)c4CC[C@H]3[C@@H]1CCC2=O` has an inhibition of 25% (AKR1C1; enzyme activity, inhibitor, absorbance; 100 µM, pH 9).
With `NC(=O)C1CCCc2c1[nH]c1ccc(Cl)cc21` (stereo not shown) the inhibition was 98% (SIRT1; enzyme activity, inhibitor, fluorescence; 10 µM).

Repeated from above:
Under inhibition, `CCS(=O)(=O)c1ccccc1C(=O)N1CCN(c2nc3ccc(F)cc3s2)C[C@@H]1C` is recorded as “no effect” (MGLL (Homo sapiens, UniProt Q99685); enzyme activity, inhibitor; concentration not given).
With `O=C(N[C@@H](CC1CCCCC1)C(=O)N[C@@H](C[C@H]1CCNC1=O)C(=O)C(=O)NC1CC1)OCc1cccc(Cl)c1` the inhibition was 0% (Chymotrypsinogen A (Bos taurus, UniProt P00766); enzyme activity, inhibitor; 2.5 µM, inhibitor/enzyme ratio 250).
